Results from different studies.
Each numbered part is a random draw from the data of one study; scales do not carry over between parts.
Sequence of UniProt Q00526 (whole entry, looked up): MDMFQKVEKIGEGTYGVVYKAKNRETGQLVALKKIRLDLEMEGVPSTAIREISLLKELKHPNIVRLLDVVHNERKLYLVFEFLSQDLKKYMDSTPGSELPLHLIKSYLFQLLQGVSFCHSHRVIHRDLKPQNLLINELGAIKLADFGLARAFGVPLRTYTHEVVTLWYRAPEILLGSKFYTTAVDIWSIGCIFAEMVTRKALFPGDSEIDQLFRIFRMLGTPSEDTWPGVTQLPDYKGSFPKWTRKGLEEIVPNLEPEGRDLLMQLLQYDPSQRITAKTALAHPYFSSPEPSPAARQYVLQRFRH
Sequence of UniProt Q8TF76 (whole entry, looked up): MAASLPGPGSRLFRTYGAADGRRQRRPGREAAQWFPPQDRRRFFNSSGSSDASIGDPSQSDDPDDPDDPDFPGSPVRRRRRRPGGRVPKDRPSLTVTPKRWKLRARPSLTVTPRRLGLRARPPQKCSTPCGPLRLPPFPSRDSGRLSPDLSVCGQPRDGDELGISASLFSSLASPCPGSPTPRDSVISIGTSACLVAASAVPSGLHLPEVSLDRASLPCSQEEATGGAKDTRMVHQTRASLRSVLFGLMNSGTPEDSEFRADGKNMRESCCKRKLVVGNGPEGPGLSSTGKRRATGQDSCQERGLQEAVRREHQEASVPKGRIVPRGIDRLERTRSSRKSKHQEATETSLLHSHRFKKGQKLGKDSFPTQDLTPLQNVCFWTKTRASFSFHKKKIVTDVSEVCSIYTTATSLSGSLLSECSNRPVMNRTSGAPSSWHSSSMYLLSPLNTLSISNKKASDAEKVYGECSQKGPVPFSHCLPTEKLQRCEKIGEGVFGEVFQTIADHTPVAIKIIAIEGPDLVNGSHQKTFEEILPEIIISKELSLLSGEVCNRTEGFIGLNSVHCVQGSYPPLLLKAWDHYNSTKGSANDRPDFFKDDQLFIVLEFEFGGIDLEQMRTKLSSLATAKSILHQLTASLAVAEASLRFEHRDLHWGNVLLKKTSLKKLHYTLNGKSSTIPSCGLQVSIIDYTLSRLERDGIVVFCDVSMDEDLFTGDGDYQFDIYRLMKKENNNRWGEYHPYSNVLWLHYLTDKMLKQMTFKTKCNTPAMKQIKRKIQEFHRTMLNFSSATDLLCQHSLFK
Sequence of UniProt P11362 (whole entry, looked up): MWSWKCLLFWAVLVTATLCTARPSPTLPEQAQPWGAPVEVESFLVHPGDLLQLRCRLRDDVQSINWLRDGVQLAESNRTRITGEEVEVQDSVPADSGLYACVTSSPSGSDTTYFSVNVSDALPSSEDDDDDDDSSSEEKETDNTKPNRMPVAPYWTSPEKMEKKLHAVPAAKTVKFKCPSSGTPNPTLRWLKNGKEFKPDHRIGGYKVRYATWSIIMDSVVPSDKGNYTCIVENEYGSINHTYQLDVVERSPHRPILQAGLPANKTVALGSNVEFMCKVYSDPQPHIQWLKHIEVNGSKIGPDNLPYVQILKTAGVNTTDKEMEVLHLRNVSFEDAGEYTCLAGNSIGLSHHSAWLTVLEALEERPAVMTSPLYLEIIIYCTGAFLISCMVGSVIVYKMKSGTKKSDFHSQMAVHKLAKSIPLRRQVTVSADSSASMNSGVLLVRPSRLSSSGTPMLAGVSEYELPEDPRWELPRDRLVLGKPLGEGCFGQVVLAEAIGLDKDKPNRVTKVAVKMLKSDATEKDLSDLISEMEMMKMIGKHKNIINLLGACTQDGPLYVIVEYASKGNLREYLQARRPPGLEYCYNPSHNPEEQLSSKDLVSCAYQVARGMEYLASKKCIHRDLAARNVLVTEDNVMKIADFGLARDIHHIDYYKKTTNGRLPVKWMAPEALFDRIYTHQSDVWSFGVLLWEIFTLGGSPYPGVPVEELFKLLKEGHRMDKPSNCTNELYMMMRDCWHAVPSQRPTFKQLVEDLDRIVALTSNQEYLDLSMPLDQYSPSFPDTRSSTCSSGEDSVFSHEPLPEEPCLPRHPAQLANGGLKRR
Sequence of UniProt Q9BRS2 (whole entry, looked up): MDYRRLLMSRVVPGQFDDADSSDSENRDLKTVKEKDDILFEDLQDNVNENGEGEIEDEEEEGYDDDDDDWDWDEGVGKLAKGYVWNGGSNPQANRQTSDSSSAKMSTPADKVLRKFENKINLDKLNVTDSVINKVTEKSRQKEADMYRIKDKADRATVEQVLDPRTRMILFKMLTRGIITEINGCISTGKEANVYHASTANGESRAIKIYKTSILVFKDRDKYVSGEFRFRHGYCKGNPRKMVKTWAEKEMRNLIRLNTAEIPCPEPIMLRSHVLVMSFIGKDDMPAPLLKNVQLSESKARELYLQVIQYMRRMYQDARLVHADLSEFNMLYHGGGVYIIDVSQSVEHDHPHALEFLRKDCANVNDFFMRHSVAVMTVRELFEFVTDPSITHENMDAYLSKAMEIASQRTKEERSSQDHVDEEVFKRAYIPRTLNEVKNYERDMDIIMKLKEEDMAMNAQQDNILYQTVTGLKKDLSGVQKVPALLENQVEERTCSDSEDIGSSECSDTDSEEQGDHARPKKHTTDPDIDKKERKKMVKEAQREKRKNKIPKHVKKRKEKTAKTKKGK
Sequence of UniProt Q8N568 (whole entry, looked up): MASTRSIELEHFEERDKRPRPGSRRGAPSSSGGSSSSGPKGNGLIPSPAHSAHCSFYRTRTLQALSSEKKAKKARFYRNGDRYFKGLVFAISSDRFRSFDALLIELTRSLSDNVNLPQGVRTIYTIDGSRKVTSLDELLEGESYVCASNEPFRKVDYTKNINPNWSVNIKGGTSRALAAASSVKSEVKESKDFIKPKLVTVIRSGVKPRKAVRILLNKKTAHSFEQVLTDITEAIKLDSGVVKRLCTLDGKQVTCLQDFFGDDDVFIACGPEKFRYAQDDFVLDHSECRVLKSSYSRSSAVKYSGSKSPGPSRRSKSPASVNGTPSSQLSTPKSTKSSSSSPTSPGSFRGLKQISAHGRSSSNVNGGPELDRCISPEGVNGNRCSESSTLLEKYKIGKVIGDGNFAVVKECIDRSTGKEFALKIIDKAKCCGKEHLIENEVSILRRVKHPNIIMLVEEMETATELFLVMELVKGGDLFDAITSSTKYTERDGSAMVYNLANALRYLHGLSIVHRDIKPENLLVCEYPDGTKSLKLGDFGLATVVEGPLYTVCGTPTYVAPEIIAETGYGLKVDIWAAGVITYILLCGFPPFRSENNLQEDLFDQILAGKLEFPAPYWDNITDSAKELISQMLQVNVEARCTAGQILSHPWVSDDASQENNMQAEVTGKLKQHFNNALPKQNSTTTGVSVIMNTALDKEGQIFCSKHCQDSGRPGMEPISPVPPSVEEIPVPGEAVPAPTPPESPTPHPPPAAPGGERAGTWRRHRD
Sequence of UniProt Q16816 (whole entry, looked up): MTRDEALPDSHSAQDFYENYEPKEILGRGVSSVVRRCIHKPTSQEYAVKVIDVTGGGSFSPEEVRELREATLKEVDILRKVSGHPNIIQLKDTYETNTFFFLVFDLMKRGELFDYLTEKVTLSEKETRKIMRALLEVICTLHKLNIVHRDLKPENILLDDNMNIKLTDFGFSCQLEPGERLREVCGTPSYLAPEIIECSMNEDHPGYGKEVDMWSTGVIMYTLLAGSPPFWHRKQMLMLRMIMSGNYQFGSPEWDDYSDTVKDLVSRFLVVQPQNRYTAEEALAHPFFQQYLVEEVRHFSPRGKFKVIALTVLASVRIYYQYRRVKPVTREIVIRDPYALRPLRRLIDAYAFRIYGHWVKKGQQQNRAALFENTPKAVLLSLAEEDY
Sequence of UniProt Q86YV6 (whole entry, looked up): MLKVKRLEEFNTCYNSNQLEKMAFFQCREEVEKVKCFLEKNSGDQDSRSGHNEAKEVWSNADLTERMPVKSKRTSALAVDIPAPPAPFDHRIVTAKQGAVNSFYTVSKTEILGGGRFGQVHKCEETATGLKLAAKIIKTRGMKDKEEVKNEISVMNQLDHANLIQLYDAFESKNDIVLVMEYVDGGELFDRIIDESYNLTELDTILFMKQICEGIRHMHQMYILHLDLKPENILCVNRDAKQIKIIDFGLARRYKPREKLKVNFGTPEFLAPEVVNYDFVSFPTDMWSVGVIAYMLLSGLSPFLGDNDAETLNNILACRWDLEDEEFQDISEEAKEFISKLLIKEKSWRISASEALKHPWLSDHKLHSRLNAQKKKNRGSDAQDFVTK

Block 1 — observed: enzyme activity; action: inhibitor; concentration: 0.5 µM; reference: control
Target: Serine/threonine-protein kinase BRSK2 (BRSK2, Homo sapiens, UniProt Q8IWQ3)
Sequence of UniProt Q8IWQ3 (whole entry, looked up): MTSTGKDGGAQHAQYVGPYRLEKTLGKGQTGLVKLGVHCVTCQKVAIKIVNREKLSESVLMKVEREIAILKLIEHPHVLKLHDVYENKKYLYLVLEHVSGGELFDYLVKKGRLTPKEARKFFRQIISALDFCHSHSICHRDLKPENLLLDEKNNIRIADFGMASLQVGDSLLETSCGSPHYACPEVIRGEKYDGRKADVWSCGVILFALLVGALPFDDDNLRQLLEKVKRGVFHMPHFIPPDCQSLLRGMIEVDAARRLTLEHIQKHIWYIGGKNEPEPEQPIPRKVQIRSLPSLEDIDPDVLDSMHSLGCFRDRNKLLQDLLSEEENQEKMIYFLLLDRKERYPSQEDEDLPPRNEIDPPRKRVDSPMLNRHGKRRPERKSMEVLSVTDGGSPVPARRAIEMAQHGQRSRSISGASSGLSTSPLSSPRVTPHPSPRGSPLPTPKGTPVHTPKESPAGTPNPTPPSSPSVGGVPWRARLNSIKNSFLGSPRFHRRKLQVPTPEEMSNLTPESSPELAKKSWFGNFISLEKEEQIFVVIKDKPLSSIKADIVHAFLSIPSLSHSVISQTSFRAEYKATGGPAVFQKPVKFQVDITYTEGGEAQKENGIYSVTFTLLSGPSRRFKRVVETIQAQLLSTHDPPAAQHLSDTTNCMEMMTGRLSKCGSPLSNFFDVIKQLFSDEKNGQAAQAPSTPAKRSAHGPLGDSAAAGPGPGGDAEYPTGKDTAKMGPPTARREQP
Compound | remaining activity [%]
O=Nc1c(-c2c(O)[nH]c3ccccc23)[nH]c2ccccc12 | 28
O=C1c2ccccc2-c2nc3nnnn3nc21 | 66.7
NC(=O)c1ccc(-c2nc(-c3ccc4c(c3)OCCO4)c(-c3ccccn3)[nH]2)cc1 | 98.8
O=C(O)/C=C/c1cc(Br)c(Br)c(Br)c1Br | 91.1
C[C@@H](N)[C@H]1CC[C@H](C(=O)Nc2ccncc2)CC1 | 92.7
CNc1cc2c(Nc3cccc(Br)c3)ncnc2cn1 | 90.9
O=C1NC(=O)/C(=C/c2ccc3c(c2)OC(F)(F)O3)S1 | 90.9
COc1cc2c(N3CCN(C(=O)Nc4ccc(OC(C)C)cc4)CC3)ncnc2cc1OCCCN1CCCCC1 | 98.6
CC(C)n1cnc2c(Nc3cccc(Cl)c3)nc(NCCO)nc21 | 95
NC(=O)c1cccc(-c2cc(Nc3ccc(OC(F)(F)F)cc3)ncn2)c1 | 93
N#C/C(=C(/N)SC1C=CC=CC1)c1cccc(C(O)c2ccncc2)c1 (stereo not drawn) | 101
CC(C)N(CCC(=O)c1ccc2ccccc2c1)Cc1ccccc1 | 103
O=c1c(-c2ccc(F)cc2)c(-c2ccncc2)[nH]n1-c1ccc(Cl)cc1 | 90.8
N#CC(c1ccnc(NCCc2cccnc2)n1)c1nc2ccccc2s1 (stereo not drawn) | 88.1
Clc1ccc(Nc2nnc(Cc3ccncc3)c3ccccc23)cc1 | 97.1
c1cc(-c2cnn3cc(-c4ccc(OCCN5CCCCC5)cc4)cnc23)ccn1 | 67.9
O=C(c1ccccc1)c1ccc(N2CCOCC2)cc1O | 95.5
CC(C)(C)c1nc2c3cc[nH]c(=O)c3c3cc(F)ccc3c2[nH]1 | 21.4
COc1cc2c(Nc3ccc(Br)cc3F)ncnc2cc1OCC1CCN(C)CC1 | 104
CCN(CC)CCCCN1c2ccccc2Oc2ccc(Cl)cc21 | 107
Nc1nc(Nc2ccc(S(N)(=O)=O)cc2)nn1C(=S)Nc1c(F)cccc1F | 9.03
CCCCc1c(-c2ccc(O)cc2)[nH]c2nccnc12 | 87.2

Block 2 — concentration: 1 µM
Structure (SMILES): C=CC(=O)N1CCC([C@@H]2CCNc3c(C(N)=O)c(-c4ccc(Oc5ccccc5)cc4)nn32)CC1
target | observed | action | inhibition [%]
HASPIN (Homo sapiens, UniProt Q8TF76) | enzyme activity | inhibitor | 7
PHKG1 (Homo sapiens, UniProt Q16816) | enzyme activity | inhibitor | 0
FLT3 (Homo sapiens, UniProt P36888, K663Q) | enzyme activity | inhibitor | 39
PIP4K2B (Homo sapiens, UniProt P78356) | enzyme activity | inhibitor | 9
HUNK (Homo sapiens, UniProt P57058) | enzyme activity | inhibitor | 0
Ribosomal protein S6 kinase alpha-3, C-terminal kinase domain (RPS6KA3, Homo sapiens, UniProt P51812) | – | inhibitor | 0
EGFR (Homo sapiens, UniProt P00533, del747-750/T751S) | cell-free assay | – | 75
CSNK1A1L (Homo sapiens, UniProt Q8N752) | enzyme activity | inhibitor | 24
HIPK2 (Homo sapiens, UniProt Q9H2X6) | enzyme activity | inhibitor | 0
MYLK4 (Homo sapiens, UniProt Q86YV6) | – | inhibitor | 3
COQ8B (Homo sapiens, UniProt Q96D53) | enzyme activity | inhibitor | 0
DCLK2 (Homo sapiens, UniProt Q8N568) | enzyme activity | inhibitor | 26
KDR (Homo sapiens, UniProt P35968) | cell-free assay | – | 0
NTRK2 (Homo sapiens, UniProt Q16620) | cell-free assay | – | 0
MAPK6 (Homo sapiens, UniProt Q16659) | enzyme activity | inhibitor | 4
BLK (Homo sapiens, UniProt P51451) | enzyme activity | inhibitor | 99
FGFR1 (Homo sapiens, UniProt P11362) | cell-free assay | – | 27

Block 3 — organism: Sarcocystis neurona; observed: parasite growth; concentration: 10 µM; time: 96 h; reference: untreated
Structure (SMILES) | log2 fold change
CCOc1cc(N)c(Cl)cc1C(=O)NCC1CN(Cc2ccc(F)cc2)CCO1 (stereo not drawn) | -0.98
COc1ccc2cc(CCC(C)=O)ccc2c1 | 2.2
COc1ccc2[nH]c([S+]([O-])Cc3ncc(C)c(OC)c3C)nc2c1 (stereo not drawn) | 0.28
COc1cccc2c1C(=O)c1c(O)c3c(c(O)c1C2=O)C[C@@](O)(C(=O)CO)C[C@@H]3O[C@H]1C[C@H](N)[C@@H](O)[C@H](C)O1 | -2.5
CO/N=C(\C(=O)N[C@@H]1C(=O)N2C(C(=O)O)=C(COC(N)=O)CS[C@H]12)c1ccco1 | 0.24
c1ccc2[nH]c(-c3cscn3)nc2c1 | 2.12
Nc1nnc(-c2cccc(Cl)c2Cl)c(N)n1 | 0.3
CCOC(=O)C1=C(C)NC(C)=C(C(=O)OCC)C1c1ccccc1/C=C/C(=O)OC(C)(C)C | -0.66
O=C(O)C[C@H](O)C[C@H](O)/C=C/c1c(C2CC2)nc2ccccc2c1-c1ccc(F)cc1 | -0.1
CN(CCCN1c2ccccc2CCc2ccccc21)CC(=O)c1ccc(Cl)cc1 | -0.0644
O=C1CCc2ccc(OCCCCN3CCN(c4cccc(Cl)c4Cl)CC3)cc2N1 | -0.18
C[C@@H]1C[C@H]2[C@@H]3C[C@H](F)C4=CC(=O)C(Cl)=C[C@]4(C)[C@@]3(F)[C@@H](O)C[C@]2(C)[C@@]1(O)C(=O)CO | -0.13
NNC(=O)c1ccncc1 | 0.34
CC(=O)O[C@@]12CO[C@@H]1C[C@H](O)[C@@]1(C)C(=O)[C@H](O)C3=C(C)[C@@H](OC(=O)[C@H](O)[C@@H](NC(=O)OC(C)(C)C)c4ccccc4)C[C@@](O)([C@@H](OC(=O)c4ccccc4)[C@H]21)C3(C)C | -1.07

Block 4 — observed: cell-free assay; technique: competition with immobilised ligand; concentration: 1 µM
Compound: COc1ccc2c(c1)O[C@H](c1ccc(OC)c(OC)c1)C[C@@H]2NC(=O)C1(c2ccc3c(c2)OC(F)(F)O3)CC1
target | remaining binding
Ribosomal protein S6 kinase alpha-2, N-terminal kinase domain (RPS6KA2, Homo sapiens, UniProt Q15349) | 100%
CDK3 (Homo sapiens, UniProt Q00526) | 100%
MET (Homo sapiens, UniProt P08581, M1250T) | 89%
PRKCI (Homo sapiens, UniProt P41743) | 89%
Tyrosine-protein kinase ABL1, phosphorylated (ABL1, Homo sapiens, UniProt P00519, Y253F) | 93%
RIOK1 (Homo sapiens, UniProt Q9BRS2) | 100%
TEC (Homo sapiens, UniProt P42680) | 100%
MET (Homo sapiens, UniProt P08581, Y1235D) | 100%
SRPK2 (Homo sapiens, UniProt P78362) | 100%
CLK4 (Homo sapiens, UniProt Q9HAZ1) | 92%
CILK1 (Homo sapiens, UniProt Q9UPZ9) | 80%
GSK3A (Homo sapiens, UniProt P49840) | 100%
PIK3CG (Homo sapiens, UniProt P48736) | 74%
WNK1 (Homo sapiens, UniProt Q9H4A3) | 100%
EPHB1 (Homo sapiens, UniProt P54762) | 100%
CASK (Homo sapiens, UniProt O14936) | 85%
